Published values collected from several papers.
Protocols differ between the studies behind these lines. Values joined by “and” are separate records of one study, mostly repeats; a detail may differ. ± marks the error that the study gave.
CNR2: Cannabinoid receptor 2 (CNR2, Homo sapiens, UniProt P34972)
Chain of UniProt P34972 (whole entry, looked up): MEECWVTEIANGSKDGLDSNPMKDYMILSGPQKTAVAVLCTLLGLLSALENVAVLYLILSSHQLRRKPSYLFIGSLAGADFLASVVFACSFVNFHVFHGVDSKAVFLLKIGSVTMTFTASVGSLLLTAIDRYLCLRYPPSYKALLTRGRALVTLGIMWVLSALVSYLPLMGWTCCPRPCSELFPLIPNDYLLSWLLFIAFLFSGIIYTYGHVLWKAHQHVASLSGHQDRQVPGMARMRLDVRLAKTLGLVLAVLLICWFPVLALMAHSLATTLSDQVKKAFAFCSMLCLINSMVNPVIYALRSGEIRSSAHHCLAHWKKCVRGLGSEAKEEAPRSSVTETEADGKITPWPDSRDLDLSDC
C3AR1: C3a anaphylatoxin chemotactic receptor (C3AR1, Homo sapiens, UniProt Q16581)
Chain of UniProt Q16581 (whole entry, looked up): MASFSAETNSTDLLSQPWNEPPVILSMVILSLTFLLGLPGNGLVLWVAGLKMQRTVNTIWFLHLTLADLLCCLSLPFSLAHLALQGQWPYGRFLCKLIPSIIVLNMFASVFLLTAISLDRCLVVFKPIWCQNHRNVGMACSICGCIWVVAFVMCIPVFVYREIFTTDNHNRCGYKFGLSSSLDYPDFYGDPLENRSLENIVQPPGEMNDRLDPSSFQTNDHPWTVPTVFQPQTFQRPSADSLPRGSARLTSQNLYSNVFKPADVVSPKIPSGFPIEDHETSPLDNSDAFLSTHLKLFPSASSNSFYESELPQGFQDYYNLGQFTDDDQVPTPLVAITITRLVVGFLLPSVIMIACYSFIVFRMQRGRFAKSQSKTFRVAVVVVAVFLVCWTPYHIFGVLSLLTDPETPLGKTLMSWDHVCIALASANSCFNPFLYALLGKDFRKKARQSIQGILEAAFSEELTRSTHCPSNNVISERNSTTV
Genome polyprotein NS2B-NS3 protease: Genome polyprotein, NS2B-NS3 protease (dengue virus type 2, UniProt P29990)
SUCNR1: Succinate receptor 1 (SUCNR1, Homo sapiens, UniProt Q9BXA5)
Chain of UniProt Q9BXA5 (whole entry, looked up): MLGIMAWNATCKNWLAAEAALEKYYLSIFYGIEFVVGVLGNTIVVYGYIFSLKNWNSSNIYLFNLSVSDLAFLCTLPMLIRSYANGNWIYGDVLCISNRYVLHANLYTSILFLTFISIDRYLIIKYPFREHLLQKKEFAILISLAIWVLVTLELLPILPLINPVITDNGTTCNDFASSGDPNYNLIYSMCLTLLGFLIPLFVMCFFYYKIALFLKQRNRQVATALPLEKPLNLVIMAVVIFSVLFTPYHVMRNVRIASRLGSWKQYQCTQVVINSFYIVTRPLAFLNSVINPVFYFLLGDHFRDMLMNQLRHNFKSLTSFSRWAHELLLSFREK
DGKA: Diacylglycerol kinase alpha (DGKA, Homo sapiens, UniProt P23743)
Chain of UniProt P46089 (whole entry, unmodified, looked up): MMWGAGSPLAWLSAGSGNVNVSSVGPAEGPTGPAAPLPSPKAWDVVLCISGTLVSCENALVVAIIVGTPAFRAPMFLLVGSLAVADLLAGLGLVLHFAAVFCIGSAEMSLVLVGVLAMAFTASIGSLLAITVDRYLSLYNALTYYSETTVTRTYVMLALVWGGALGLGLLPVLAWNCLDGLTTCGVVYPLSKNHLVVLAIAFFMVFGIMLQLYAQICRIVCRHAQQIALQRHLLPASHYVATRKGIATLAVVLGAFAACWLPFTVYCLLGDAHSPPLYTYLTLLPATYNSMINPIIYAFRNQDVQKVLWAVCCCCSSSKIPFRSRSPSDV
Chain of UniProt P30968 (whole entry, looked up): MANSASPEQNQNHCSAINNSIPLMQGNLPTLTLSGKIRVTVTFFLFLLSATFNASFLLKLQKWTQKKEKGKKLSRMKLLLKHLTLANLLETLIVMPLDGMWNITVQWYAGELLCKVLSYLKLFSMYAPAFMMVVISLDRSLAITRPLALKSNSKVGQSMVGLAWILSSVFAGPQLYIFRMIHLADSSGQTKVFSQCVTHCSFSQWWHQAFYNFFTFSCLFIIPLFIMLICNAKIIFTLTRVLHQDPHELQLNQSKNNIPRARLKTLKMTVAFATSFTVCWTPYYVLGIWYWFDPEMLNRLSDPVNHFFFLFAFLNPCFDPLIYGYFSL
Chain of UniProt Q704Y3 (whole entry, unmodified, looked up): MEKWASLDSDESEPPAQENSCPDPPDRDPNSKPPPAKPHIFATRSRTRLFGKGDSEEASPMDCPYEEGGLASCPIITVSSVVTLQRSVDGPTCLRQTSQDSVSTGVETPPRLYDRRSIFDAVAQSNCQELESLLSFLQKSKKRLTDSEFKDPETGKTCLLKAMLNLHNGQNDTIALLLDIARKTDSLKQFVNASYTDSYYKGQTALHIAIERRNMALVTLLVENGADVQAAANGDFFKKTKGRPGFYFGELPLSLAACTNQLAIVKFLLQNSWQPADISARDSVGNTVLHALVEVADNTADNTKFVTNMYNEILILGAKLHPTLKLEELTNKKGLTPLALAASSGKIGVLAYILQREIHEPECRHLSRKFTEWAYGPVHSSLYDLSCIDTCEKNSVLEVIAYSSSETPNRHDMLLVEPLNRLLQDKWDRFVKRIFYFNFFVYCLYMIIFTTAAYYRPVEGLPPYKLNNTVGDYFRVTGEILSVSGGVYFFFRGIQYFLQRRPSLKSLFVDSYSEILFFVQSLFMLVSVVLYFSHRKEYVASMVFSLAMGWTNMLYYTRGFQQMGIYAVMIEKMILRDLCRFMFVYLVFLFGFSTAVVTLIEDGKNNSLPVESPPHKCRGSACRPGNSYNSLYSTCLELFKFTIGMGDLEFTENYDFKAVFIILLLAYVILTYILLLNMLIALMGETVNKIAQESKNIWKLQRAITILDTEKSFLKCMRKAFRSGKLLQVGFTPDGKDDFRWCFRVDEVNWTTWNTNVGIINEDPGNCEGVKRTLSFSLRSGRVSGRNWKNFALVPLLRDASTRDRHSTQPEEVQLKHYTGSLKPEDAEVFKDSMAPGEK
Chain of UniProt A7T1N0 (whole entry, unmodified, looked up): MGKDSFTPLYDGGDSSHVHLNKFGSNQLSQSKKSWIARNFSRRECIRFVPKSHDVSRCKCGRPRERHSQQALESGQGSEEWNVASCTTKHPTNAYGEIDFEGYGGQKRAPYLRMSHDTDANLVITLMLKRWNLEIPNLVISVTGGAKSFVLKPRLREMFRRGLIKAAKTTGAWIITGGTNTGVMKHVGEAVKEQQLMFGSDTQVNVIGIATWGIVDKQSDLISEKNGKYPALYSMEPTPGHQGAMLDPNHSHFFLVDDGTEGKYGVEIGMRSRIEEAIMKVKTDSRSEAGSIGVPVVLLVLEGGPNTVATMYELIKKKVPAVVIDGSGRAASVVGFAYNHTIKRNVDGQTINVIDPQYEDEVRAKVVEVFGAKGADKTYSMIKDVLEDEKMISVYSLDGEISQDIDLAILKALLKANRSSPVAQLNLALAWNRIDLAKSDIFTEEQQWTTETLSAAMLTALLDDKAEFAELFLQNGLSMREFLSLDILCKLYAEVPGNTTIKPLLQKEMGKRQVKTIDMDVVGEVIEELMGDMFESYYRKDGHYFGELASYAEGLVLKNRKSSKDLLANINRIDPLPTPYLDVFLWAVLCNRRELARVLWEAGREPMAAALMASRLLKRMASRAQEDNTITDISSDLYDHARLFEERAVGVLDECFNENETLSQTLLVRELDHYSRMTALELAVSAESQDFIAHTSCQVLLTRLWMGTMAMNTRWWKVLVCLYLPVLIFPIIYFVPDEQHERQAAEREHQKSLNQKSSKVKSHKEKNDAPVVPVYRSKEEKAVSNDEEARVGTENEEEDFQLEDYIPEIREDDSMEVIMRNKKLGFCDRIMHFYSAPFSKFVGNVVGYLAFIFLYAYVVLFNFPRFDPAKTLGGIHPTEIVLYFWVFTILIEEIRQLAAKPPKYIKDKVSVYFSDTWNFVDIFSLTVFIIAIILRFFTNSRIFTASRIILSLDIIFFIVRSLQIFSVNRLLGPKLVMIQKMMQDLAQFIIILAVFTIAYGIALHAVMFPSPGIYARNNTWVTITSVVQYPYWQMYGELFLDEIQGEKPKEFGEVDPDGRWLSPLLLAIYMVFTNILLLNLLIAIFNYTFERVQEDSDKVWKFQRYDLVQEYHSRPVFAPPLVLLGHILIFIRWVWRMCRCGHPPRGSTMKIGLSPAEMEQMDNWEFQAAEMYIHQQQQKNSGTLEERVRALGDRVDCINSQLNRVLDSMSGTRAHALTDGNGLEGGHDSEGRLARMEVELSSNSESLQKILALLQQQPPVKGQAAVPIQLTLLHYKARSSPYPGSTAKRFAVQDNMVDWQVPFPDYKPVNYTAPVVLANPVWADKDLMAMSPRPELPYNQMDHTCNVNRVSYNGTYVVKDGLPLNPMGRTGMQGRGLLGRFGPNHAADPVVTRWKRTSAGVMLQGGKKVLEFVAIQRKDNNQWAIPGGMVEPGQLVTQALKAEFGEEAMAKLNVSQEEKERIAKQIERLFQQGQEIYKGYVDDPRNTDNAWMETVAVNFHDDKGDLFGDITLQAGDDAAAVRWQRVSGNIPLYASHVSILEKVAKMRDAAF
Chain of UniProt P02716 (whole entry, looked up): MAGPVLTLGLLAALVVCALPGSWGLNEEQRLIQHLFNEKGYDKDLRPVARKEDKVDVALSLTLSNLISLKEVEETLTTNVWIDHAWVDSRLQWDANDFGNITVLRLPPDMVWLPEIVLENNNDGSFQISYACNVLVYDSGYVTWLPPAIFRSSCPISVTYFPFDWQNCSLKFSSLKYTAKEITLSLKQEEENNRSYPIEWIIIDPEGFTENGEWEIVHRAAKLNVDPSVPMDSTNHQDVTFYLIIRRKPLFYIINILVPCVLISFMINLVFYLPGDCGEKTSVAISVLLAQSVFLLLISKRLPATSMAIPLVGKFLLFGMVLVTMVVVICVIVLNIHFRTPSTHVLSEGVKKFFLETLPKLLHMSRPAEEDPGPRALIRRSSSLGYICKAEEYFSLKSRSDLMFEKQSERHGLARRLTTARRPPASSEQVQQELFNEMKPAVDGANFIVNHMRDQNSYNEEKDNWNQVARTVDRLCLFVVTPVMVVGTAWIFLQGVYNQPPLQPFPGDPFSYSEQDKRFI
Chain of UniProt P07026 (whole entry, looked up): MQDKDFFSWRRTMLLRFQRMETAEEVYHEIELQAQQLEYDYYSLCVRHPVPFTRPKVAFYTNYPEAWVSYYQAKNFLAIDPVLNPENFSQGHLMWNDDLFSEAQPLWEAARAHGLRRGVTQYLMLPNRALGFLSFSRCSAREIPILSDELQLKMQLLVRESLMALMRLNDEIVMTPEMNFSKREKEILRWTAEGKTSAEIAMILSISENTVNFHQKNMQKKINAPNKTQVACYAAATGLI

Compound	target or system	test	test system	setting	how to read	measurement	value
CCOC(=O)C(CC)(CCCSCCCCCCNc1ccc([N+](=O)[O-])c2nonc12)NC(=O)c1ccc(C2CC2)c(Cc2ccc(F)cc2)n1 (stereo not shown)	CNR2	cAMP, agonist				EC50	9.9 nM
CCc1cc(O)cc2c(/C=N/NC(=N)NCCc3ccc(Cl)cc3)c[nH]c12	Relaxin-3 receptor 2 (RXFP4, Homo sapiens, UniProt Q8TDU9, L118A)	agonist				EC50	4.68 nM
O=C(Cc1ccc(OCc2ccccc2)cc1)NC1(C(=O)O)CCN(C(=O)c2ccc(-c3cccc(Cl)c3)cc2)CC1	Adenosine receptor A3 (ADORA3, Homo sapiens, UniProt P0DMS8)	cAMP, agonist, luciferase				EC50	> 10000 nM
CC(C)(C(=O)N1CCC(Nc2nc3c(c(=O)[nH]2)CCCC3)CC1)c1ccc(Cl)cc1	MRGPRD (Homo sapiens, UniProt Q8TDS7)	miniGq recruitment, agonist, BRET1	HEK293T	wild-type receptor		EC50	66.1 nM
CC[C@H](C)[C@H](NC(=O)[C@H](CCCNC(=N)N)NC(=O)[C@H](CCCNC(=N)N)NC(=O)[C@H](CC(C)C)NC(=O)[C@H](Cc1ccccc1)NC(=O)CNC(=O)CN)C(=O)N[C@@H](CCCNC(=N)N)C(=O)N1CCC[C@H]1C(=O)N[C@@H](CCCCN)C(=O)N[C@@H](CC(C)C)C(=O)N[C@@H](CCCCN)C(=O)O	Probable G-protein coupled receptor 139 (GPR139, Homo sapiens, UniProt Q6DWJ6)	calcium response, agonist, BRET	HEK293T/17, transfected			EC50	1750 ± 950 nM
C[N+](C)(C)CCOC(N)=O	Chrnd/Chrna1/Chrne (Mus musculus, UniProt P02716+P04756+P20782)	channel open probability, agonist	mouse	wild type		EC50	400000 nM
CC(C)C[C@H](NC(=O)[C@H](C)NC(=O)[C@H](CO)NC(=O)[C@@H]1CCCN1C(=O)[C@@H]1CCCN1C(=O)[C@H](CCC(N)=O)NC(=O)[C@H](CC(C)C)NC(=O)[C@@H](N)[C@@H](C)O)C(=O)N[C@@H](CCCNC(=N)N)C(=O)N[C@@H](CCCNC(=N)N)C(=O)N[C@@H](CCCNC(=N)N)C(=O)N[C@@H](Cc1c[nH]cn1)C(=O)N[C@@H](Cc1ccc(O)cc1)C(=O)N[C@@H](Cc1c[nH]cn1)C(=O)N[C@@H](Cc1c[nH]cn1)C(=O)N[C@@H](C)C(=O)N[C@@H](CC(C)C)C(=O)N1CCC[C@H]1C(=O)N1CCC[C@H]1C(=O)N[C@@H](CO)C(=O)N[C@@H](CCCNC(=N)N)C(=O)O	C3AR1	GoA protein dissociation, agonist, NanoBiT				EC50	2820 nM
CSCC[C@H](NC(=O)[C@H](CC(C)C)NC(=O)CNC(=O)[C@H](Cc1ccccc1)NC(=O)[C@H](Cc1ccccc1)NC(=O)[C@@H](N)CCC(N)=O)C(N)=O	Substance-P receptor (TACR1, Homo sapiens, UniProt P25103, N85D)	agonist		concentration not given		EC50	10 nM
N#Cc1cc(NC(=O)c2cc(-c3ccccc3)n(-c3ccccc3)n2)ccc1N1CCC2(CC1)CNC2	Genome polyprotein NS2B-NS3 protease	reporter gene	HeLa			EC50	> 6300 nM
CCCCCCCC/C=C\CCCCCCCC(=O)NCCO	Transient receptor potential cation channel subfamily V member 1 (Trpv1, Mus musculus, UniProt Q704Y3, Y555F)	ion current, agonist, whole-cell patch clamp		24 °C, Y555F, +80 mV		EC50	740 ± 370 nM
O=C(Nc1ccc(N2CCOCC2)cc1)c1cc(-c2ccccc2)n(-c2ccccc2)n1	Genome polyprotein NS2B-NS3 protease	reporter gene	HeLa			EC50	14000 nM
COC1CN([C@H]2CC[C@H]([C@@]3(C)Oc4c(Cl)cc(C(=O)NCc5c(SC)cc(C)[nH]c5=O)c(C)c4O3)CC2)C1		RNA-seq, item: CCM2L	human, whole blood	dose not given, 24 h	relative to: pretreatment baseline	log2 fold change	4.14
O=C(O)CC(NC(=O)c1ccc(-c2ccc(F)cc2)o1)C(=O)O (stereo not shown)	SUCNR1	inositol phosphate, agonist				EC50	2280 nM
Nc1ccc(CNC(=O)c2cc(-c3ccccc3)n(-c3ccccc3)n2)cc1	Genome polyprotein NS2B-NS3 protease	reporter gene	HeLa			EC50	34000 nM
Nc1ncnc2c1ncn2[C@@H]1O[C@H](COP(=O)(O)OP(=O)(O)OC[C@H]2OC(O)[C@H](O)[C@@H]2O)[C@@H](O)[C@H]1OP(=O)(O)O (stereo partly shown)	TRPM2 (Nematostella vectensis, UniProt A7T1N0, M197C/H1174C)	agonist				EC50	96 ± 10 nM
CC(C)Oc1cc(Cl)ccc1CNc1cc(-c2ccccc2)nc2ncnn12	G-protein coupled receptor 3 (GPR3, Homo sapiens, UniProt P46089, L128A)	cAMP level, agonist				EC50	64.6 nM and 33.1 nM and 15.8 nM and 55 nM

Compound	target or system	test	test system	setting	how to read	measurement	value
CC(C)C[C@H](NC(=O)[C@@H](Cc1c[nH]c2ccccc12)NC(=O)[C@H](Cc1ccc(O)cc1)NC(=O)[C@H](CO)NC(=O)[C@H](Cc1c[nH]c2ccccc12)NC(=O)[C@H](Cc1c[nH]cn1)NC(=O)[C@@H]1CCC(=O)N1)C(=O)N[C@@H](CCCNC(=N)N)C(=O)N1CCC[C@H]1C(=O)NCC(N)=O	Gonadotropin-releasing hormone receptor (GNRHR, Homo sapiens, UniProt P30968)	inositol phosphate, agonist, TR-FRET				EC50	0.0832 nM
CCOC(=O)[C@](CC)(CCCSCCOCCOCCN)NC(=O)c1ccc(C2CC2)c(Cc2ccc(F)cc2)n1	CNR2	cAMP, agonist				EC50	0.5 nM
N#Cc1cc(NC(=O)c2cc(-c3ccccc3)n(-c3ccccc3)n2)ccc1N1CCOCC1	Genome polyprotein NS2B-NS3 protease	reporter gene	HeLa			EC50	11000 nM
Cn1c(=O)n(C2CCC(=O)NC2=O)c2ccc(C3CCN(CC(=O)Nc4cccc(CS(=O)(=O)N5CC[C@H](Nc6cccc(-c7sc(C(=O)O)c(OCC(=O)O)c7Cl)c6)CC5(C)C)c4)CC3)cc21 (stereo partly shown)	Receptor-type tyrosine-protein phosphatase beta (Homo sapiens, UniProt P23467)	phosphatase activity		added: DiFMUP substrate		EC50	> 10000 nM
Cc1nc(-c2ccncc2)sc1C(=O)Nc1cccc(C(N)=O)c1	Genome polyprotein NS2B-NS3 protease	reporter gene	HeLa			EC50	> 50000 nM
C[C@@]1(c2nc(-c3ccc(F)c4cn[nH]c34)no2)CCCN(C(=O)c2ccc(F)nc2)C1	CNR2	agonist, GloSensor cAMP	CHO expressing CNR2			EC50	7.49 nM and 8.7 nM and 7.88 nM and 8.16 nM
CC(C)C[C@H](NC(=O)[C@@H](N)[C@@H](C)O)C(=O)N[C@@H](CCC(N)=O)C(=O)N1CCC[C@H]1C(=O)N1CCC[C@H]1C(=O)N[C@@H](C)C(=O)N[C@@H](CO)C(=O)N[C@@H](CO)C(=O)N[C@@H](CCCNC(=N)N)C(=O)N[C@@H](CCCNC(=N)N)C(=O)N[C@@H](CCCNC(=N)N)C(=O)N[C@@H](Cc1c[nH]cn1)C(=O)N[C@@H](Cc1ccccc1)C(=O)N[C@@H](Cc1c[nH]cn1)C(=O)N[C@@H](Cc1c[nH]cn1)C(=O)N[C@@H](C)C(=O)N[C@@H](CC(C)C)C(=O)N1CCC[C@H]1C(=O)N1CCC[C@H]1C(=O)N[C@@H](C)C(=O)N[C@@H](CCCNC(=N)N)C(=O)O	C3AR1	cAMP, agonist, luciferase				EC50	708 nM
CCOC(=O)C(CC)(CCCSCCOCCNC(=O)OC(C)(C)C)NC(=O)c1ccc(C2CC2)c(Cc2ccc(F)cc2)n1 (stereo not shown)	CNR2	cAMP, agonist				EC50	3.2 nM
CC[C@H]1CN(C(c2cccc(C(F)(F)F)c2)c2nc(C(F)(F)F)nn2C)[C@H](CC)CN1c1nc(=O)n(C)c2ccc(C#N)nc12 (stereo partly shown)	DGKA	DGKα-YFP translocation, high-content imaging	Jurkat			EC50	> 3000 nM
O=C(NCc1ccccn1)c1cc(-c2ccccc2)n(-c2ccccc2)n1	Genome polyprotein NS2B-NS3 protease	reporter gene	HeLa			EC50	18000 nM
O=C(Cc1ccc([N+](=O)[O-])cc1)N[C@H]1CCOC1=O	Regulatory protein SdiA (sdiA, Escherichia coli, UniProt P07026)					EC50	3.06 nM
O=C1C[C@H](c2nc(-c3ccc(F)c4cn[nH]c34)no2)CCCN1c1ccc(F)cc1 (racemic)	CNR2	cAMP, agonist, luciferase				EC50	26.5 nM
O=C(O)CC(NC(=O)c1ccc(COc2ccccc2)o1)C(=O)O (stereo not shown)	SUCNR1	inositol phosphate, agonist				EC50	442 nM
Cc1c(C(=O)N[C@H](C(=O)Nc2cccc(C(N)=O)c2)c2ccc(OCc3ccccc3)cc2)cnn1-c1ccccc1	Genome polyprotein NS2B-NS3 protease	reporter gene	HeLa			EC50	9500 nM
C[C@@H]1CN(c2cc(=O)n(C)c3ccc(C#N)nc23)[C@@H](C)CN1Cc1ccc(S(=O)(=O)n2cnc(C3CC3)n2)cc1	DGKA	plasma membrane translocation, activator, TIRF microscopy, item: endogenous DGKα	NG-DGKα knock-in cells	720 s		EC50	39 nM

Repeated from above:
Compound	target or system	test	test system	setting	how to read	measurement	value
CCOC(=O)C(CC)(CCCSCCCCCCNc1ccc([N+](=O)[O-])c2nonc12)NC(=O)c1ccc(C2CC2)c(Cc2ccc(F)cc2)n1 (stereo not shown)	CNR2	cAMP, agonist				EC50	9.9 nM
CCc1cc(O)cc2c(/C=N/NC(=N)NCCc3ccc(Cl)cc3)c[nH]c12	Relaxin-3 receptor 2 (RXFP4, Homo sapiens, UniProt Q8TDU9, L118A)	agonist				EC50	4.68 nM
O=C(Cc1ccc(OCc2ccccc2)cc1)NC1(C(=O)O)CCN(C(=O)c2ccc(-c3cccc(Cl)c3)cc2)CC1	Adenosine receptor A3 (ADORA3, Homo sapiens, UniProt P0DMS8)	cAMP, agonist, luciferase				EC50	> 10000 nM
